Earlier results, collected from citations in different studies.
Several values in a cell are separate wells, animals, samples, runs or records.
Organism: Escherichia coli

Structure (SMILES) = Cc1cc(C#N)nc(N2CCN(S(=O)(=O)c3ccc(NC(=O)c4cc(CNCCCN)ccc4N(C)S(C)(=O)=O)cc3)CC2)n1; test system = 25922; measurement = MIC; result = 2 mg/L
Structure (SMILES) = Cc1cc(C)n(N)c(=O)c1C#N; conditions = concentration not given; measurement = inhibition zone diameter; result = 22.8 mm and 22 mm
Structure (SMILES) = CSCC[C@H](NC(=O)[C@H](CCCNC(=N)N)NC(=O)[C@H](Cc1c[nH]c2ccccc12)NC(=O)[C@H](CCC(N)=O)NC(=O)[C@H](Cc1c[nH]c2ccccc12)NC(=O)[C@H](CCCNC(=N)N)NC(=O)[C@H](CCCNC(=N)N)NC(=O)[C@H](C)NC(=O)[C@H](CCCCN)NC(=O)[C@@H](N)Cc1ccccc1)C(=O)N[C@@H](CCCCN)C(=O)N[C@@H](CCCCN)C(=O)N[C@@H](CC(C)C)C(=O)NCC(=O)N[C@@H](C)C(=O)NCCCC[C@H](NC(=O)[C@H](C)NC(=O)CNC(=O)[C@H](CC(C)C)NC(=O)[C@H](CCCCN)NC(=O)[C@H](CCCCN)NC(=O)[C@H](CCSC)NC(=O)[C@H](CCCNC(=N)N)NC(=O)[C@H](Cc1c[nH]c2ccccc12)NC(=O)[C@H](CCC(N)=O)NC(=O)[C@H](Cc1c[nH]c2ccccc12)NC(=O)[C@H](CCCNC(=N)N)NC(=O)[C@H](CCCNC(=N)N)NC(=O)[C@H](C)NC(=O)[C@H](CCCCN)NC(=O)[C@@H](N)Cc1ccccc1)C(=O)NCCCCCC(N)=O; assay = broth microdilution; test system = ATCC 11775; measurement = MIC; result = > 48 µM
Structure (SMILES) = N=C(N)c1ccc(-c2ccc(-c3cccs3)s2)cc1; measurement = MIC; result = 8 µM
Structure (SMILES) = O=c1cc(-c2ccccc2)c2cc(Br)ccc2n1Cc1nnc2n1N=C(c1ccccc1)CS2; measurement = MIC; result = 2 mg/L
Structure (SMILES) = O=C(COc1cccc2ccccc12)Nc1ccccc1[N+](=O)[O-]; measurement = MIC; result = 12.5 mg/L
Structure (SMILES) = NS(=O)(=O)c1ccc(CCN/C=C2\C(=O)Oc3ccccc3C2=O)cc1; conditions = concentration not given; measurement = inhibition zone diameter; result = 10 mm
Structure (SMILES) = CSCC[C@H](NC(=O)[C@H](CCCNC(=N)N)NC(=O)[C@H](Cc1c[nH]c2ccccc12)NC(=O)[C@H](CCC(N)=O)NC(=O)[C@H](Cc1c[nH]c2ccccc12)NC(=O)[C@H](CCCNC(=N)N)NC(=O)[C@@H](N)CCCNC(=N)N)C(=O)N[C@@H](CCCCN)C(=O)N[C@@H](CCCCN)C(=O)N[C@@H](CC(C)C)C(=O)NCC(=O)NCCCC[C@H](NC(=O)CNC(=O)[C@H](CC(C)C)NC(=O)[C@H](CCCCN)NC(=O)[C@H](CCCCN)NC(=O)[C@H](CCSC)NC(=O)[C@H](CCCNC(=N)N)NC(=O)[C@H](Cc1c[nH]c2ccccc12)NC(=O)[C@H](CCC(N)=O)NC(=O)[C@H](Cc1c[nH]c2ccccc12)NC(=O)[C@H](CCCNC(=N)N)NC(=O)[C@@H](N)CCCNC(=N)N)C(=O)NCCCCCC(N)=O; assay = broth microdilution; test system = ATCC 25922; measurement = MIC; result = 30 µM
